# Published values collected from several papers.
# Numbered parts are unrelated; each lists some results of a single study.

# Set 1 — method: RNA Bind-n-Seq; form: RNA; sample: in vitro; concentration: not given; baseline: input RNA pool; reading: higher = stronger binding
# Target: RING finger protein unkempt homolog, zinc fingers 1-6, GST-SBP tag (UNK, Homo sapiens, UniProt Q9C0B0, residues 30-357)
# UniProt Q9C0B0, sequence (30-357, looked up): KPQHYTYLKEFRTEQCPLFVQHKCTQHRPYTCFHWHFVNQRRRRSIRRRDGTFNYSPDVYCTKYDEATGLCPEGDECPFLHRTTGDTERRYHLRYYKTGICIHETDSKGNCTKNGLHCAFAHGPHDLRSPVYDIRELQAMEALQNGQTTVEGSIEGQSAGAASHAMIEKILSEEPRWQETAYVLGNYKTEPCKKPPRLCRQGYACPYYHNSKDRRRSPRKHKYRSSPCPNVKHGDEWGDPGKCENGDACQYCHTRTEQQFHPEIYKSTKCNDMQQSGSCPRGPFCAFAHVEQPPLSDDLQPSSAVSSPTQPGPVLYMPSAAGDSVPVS
# Setting: RNA with constant flanks, human-mouse chimeric sites, ends assumed
# Constant ends, left off below: GGGAGUUCUACAGUCCGACGAUC … CAACAGAGGAUUGAGCAUCA
Oligonucleotide,bound/input enrichment
GUCAACAGCUGCCUCAACCCCAUCCUCUAUGCUUUCUUGGAUGAGAACUUCAAGGCCUGCUUUAGAAAGUUCUGCUGUGCAUCUGCCCUGCGCCGGGACGUGCAGGUGUCUGACCGCGUG,0.337 ratio
CACGUGUCUGCAGUACUUGAUGUGGACUACUCUCCCACUGGGAAGGAAUUUGUGUCUGCCAGCUUUGAUAAGUCUAUUCGAAUCUUUCCUGUAGACAAGAGCCGAAGCAGGGAAGUGUAU,0.281 ratio
GUGACUGACAUUAAAAUUUCCCCUCAGCAAAGAAGUGCAGUAGUCACCAUAAUUCCAUCUGUGGUGAGUGCCAGUCAGAUUGUGGAGCUGGUCCCAGACCUCAGUUUAGACAUGGGAACU,0.227 ratio
AUAAAGGCUAUGUUGAGUGGCCCAGGUCAGUUUGCUGAGAAUGAAACCAACGAGGUCAAUUUUAGAGAGAUACCUUCACAUGUGCUAUCAAAAGUGUGCAUGUAUUUUACCUACAAGGUC,0.125 ratio
UCCCAAAUCCAGCAGCUCCUUGAAAUAUUGAGACAAACACUCCACACACAGGGAAGGCGAUAACAUUGUACAUUGGUUUACAUUUUUUCCCCCUGUGGAUUUUUCUAGAGGUCAUAGUGC,0.419 ratio
GGUGGGGUGGUCAUUGCCGUUUGAGCUGCUGAUUUUCAUGAGUCGCCUUCAAAACUCUCGCAUAGGGUUGACAAUGUAAGGGGUGGGGGGAUCCAGCUUAUUCUUUUAUUUUCAAGUCCA,0.804 ratio
UCUUUGUUUGUAACUUAUGUAAAAGGUUCCCCCCCCCUACUGUCAAAAAAUAUGCAUGUAUAGUAAUUAGGACUUCAUUCCUCCAUGUUUUCUUCCCUUAUCUUACUGUCAUUGUCCUUA,2.49 ratio
CGCUUGGAUGAGGCUGGUGUCACAGAUGAAGUGCUAGAUUCUGCCAUGCAAGCCUUCCUUCUGGAGGUCAUUGUUAAACAUGGGGAGCCGGCACCUUAUUUAUGUAAUAAAGAUCCUUUU,0.142 ratio
UUAAUCCCCUUUACUGCUCCCCCACUUCUCAUGGUAAUGACAAAAACUUAUAUCCCCGUCCUAGCUUUCACUCAGAUGGCUUAUGGAGCCGGUUUCCUAUCUUUCUUGGGAGGGAUCAGA,0.218 ratio
CUGGCCUGGCCCUCCCCAGGGGCCUCCUUUCGUAUAGUCACUGCUUCUGCAUCAGAUAUUUUUAGCUCCAAGUCCUGACUGGGUGGGGCACCCAUUUCAGGCAGAAGGUUUUGGUACCCU,1.56 ratio
UUAAUCCCCUUUACUGCUCCCCCACUUCUCAUGGUAAUGACAAAAACUUAUAUCCCCGUCCUAGCUUUCACUCAGAUGGCUUAUGGAGCCGGUUUCCUAGCUUUCUUGGGAGGGAUCAGA,0.453 ratio

# Set 2 — method: RNA Bind-n-Seq; form: RNA; sample: in vitro; concentration: 200 nM; setting: whole 134-nt RNA, ends assumed; added: 150 mM KCl; baseline: input library; reading: higher = stronger binding
# Target: Ras GTPase-activating protein-binding protein 1, full length (G3BP1, Homo sapiens, UniProt Q13283)
# UniProt Q13283, sequence (whole entry, looked up): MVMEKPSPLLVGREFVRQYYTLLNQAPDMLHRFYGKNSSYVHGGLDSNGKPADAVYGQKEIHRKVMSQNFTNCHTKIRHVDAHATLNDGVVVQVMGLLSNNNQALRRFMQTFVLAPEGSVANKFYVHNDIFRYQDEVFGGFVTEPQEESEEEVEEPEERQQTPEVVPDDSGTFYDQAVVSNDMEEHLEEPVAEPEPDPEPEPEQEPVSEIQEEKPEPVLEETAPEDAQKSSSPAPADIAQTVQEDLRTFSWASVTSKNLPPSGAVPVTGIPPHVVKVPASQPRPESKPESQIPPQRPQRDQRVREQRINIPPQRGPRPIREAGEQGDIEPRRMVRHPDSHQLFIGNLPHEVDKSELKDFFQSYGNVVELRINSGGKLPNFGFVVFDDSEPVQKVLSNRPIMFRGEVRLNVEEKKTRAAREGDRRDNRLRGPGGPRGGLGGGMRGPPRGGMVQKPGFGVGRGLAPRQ
# Constant ends, left off below: GGGAGUUCUACAGUCCGACGAUC … UGGAAUUCUCGGGUGUCAAGG
Oligonucleotide,log2 enrichment
CUCAAGUCCUGUGCUACACAUCGUAUGUACCGAAUCGGUUGGGUUGGGGUUGGAAAGUAUUAUGUUACGCCGUUCGGAUCUGCACUUCCA,-0.152
UCCUGUGCUACACAUCGUAUGUACCGAAUCAAACCCAAAUUUUUUUAAACCCCCCCAAAAAAGUAUUAUGUUACGCCGUUCGGAUCUGCA,0.301
UCGGACGCCGCCAACCUGCACGAGUUCCACGCGGACCUGCGCUCAUGCUUUGCACCCCAGCACAUGGCCAUGCUGUGUAGCCCCAUCCUC,0.761
UAAAUUCAUCUGAAAAUGGUGAGGACAGGCACAAACGCAAAGAAAGAAAGUCAUCAAGAGGCAGAAGUCACUCAAGAUCUAGGUCUCGUG,-1.48
CCUGUGCUACACAUCGUAUGUACCGAAUCAAAUUUUUUUAAACCCCCCCAAACCCCCAAAAAAGUAUUAUGUUACGCCGUUCGGAUCUGC,-0.0529
CACAGACAACACGCACCCACACAGACACAGAGGGAAGGGGUUGGGAUGGGGACAGGGUGCAGAGCAGGGCGGGGUAGGACCCCAGCCCCU,1.83
UAACUUUAGAGGAGGAUCUGAUGGAUUUGGCAGUGGACGUGGAUUUGGGGAUGGCUAUAAUGGGUAUGGAGGAGGACCUGGAGGUGGCAA,0.297
GUCCUGUGCUACACAUCGUAUGUACCGAAUCGGGGUGGGGAAAAAGGGGAAAAAGGGGAAAGUAUUAUGUUACGCCGUUCGGAUCUGCAC,0.404
UGGGAGGUGGAUUUUGUUUAUUUUUUUAGCUCAGUUCCAGGGGUGGGAAUUUUUUUUUAAUAUGUGUCAUGAAUAAAGUUGUUUUUGAAA,0.254
UCAAGUCCUGUGCUACACAUCGUAUGUACCGAAUCGGGAAGGGGAAGGGAAGGGAAAGUAUUAUGUUACGCCGUUCGGAUCUGCACUUCC,1.3
AGUCCUGUGCUACACAUCGUAUGUACCGAAUCGGGGUUUUUGGUUUUUGGGUUUUUGGAAAGUAUUAUGUUACGCCGUUCGGAUCUGCAC,-0.859
CUGUGCUACACAUCGUAUGUACCGAAUCGGGGUUUUUUUGGGGAAAGGGGUUUUUUUGGGGAAAGUAUUAUGUUACGCCGUUCGGAUCUG,-0.328
UGGCCCUGGUGGCAUGCGGGGAGGAAGAGGUGGCCUCAUGGAUCGUGGUGGUCCCGGUGGAAUGUUCAGAGGUGGCCGUGGUGGCGACAG,0.109
AGUCCUGUGCUACACAUCGUAUGUACCGAAUCGGUUUUUGGUUUUUGGGGUUUUUGGAAAGUAUUAUGUUACGCCGUUCGGAUCUGCACU,-1.13

# Set 3 — method: protein-binding microarray; form: double-stranded DNA, one strand shown; sample: in vitro; concentration: 0.8 µM; setting: whole 60-bp probe, no competitor; reading: higher = stronger binding; constant ends, left off below: … GTCTTGATTCGCTTGACGCTGCTG
# Target: Centromere-binding protein 1, full length, N-terminal tag (CBF1, Saccharomyces cerevisiae, UniProt P17106, residues 1-351)
# UniProt P17106, sequence (whole entry, looked up): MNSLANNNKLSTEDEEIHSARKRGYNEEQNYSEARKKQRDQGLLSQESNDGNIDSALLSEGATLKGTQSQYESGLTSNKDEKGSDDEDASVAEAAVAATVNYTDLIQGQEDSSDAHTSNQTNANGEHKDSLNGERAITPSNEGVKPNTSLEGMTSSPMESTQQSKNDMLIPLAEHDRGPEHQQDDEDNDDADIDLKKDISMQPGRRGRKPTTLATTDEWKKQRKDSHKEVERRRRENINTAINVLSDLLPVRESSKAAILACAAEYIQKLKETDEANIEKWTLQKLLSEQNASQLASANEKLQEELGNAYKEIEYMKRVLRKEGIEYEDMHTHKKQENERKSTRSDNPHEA
Oligonucleotide,fluorescence intensity [a.u.]
CTATCTATATTCACTCACGTTATGCGCCTGAATTTC,741
CTACATACGGCTGCTCTCCTGATTGCGGTGGGTTTC,520
CTAGGAAAAGAAGATGGTGACATATGCTTAGACTTC,511
GAATCCGGTGACTTTCAGGTCACGTGTTTTCCATAG,23700
CTATCAAAATTAAATCACGCTGCAACATTGGTGTTC,999
GAAAAAAGTCCGGGTGACATTACATACATACGCTAG,555
TGTACGAAGCTATCGAACGTGTGTATAGTAGTTAGG,512
TGTACGAAGCTATTTCATAAGTCTATAGTAGTTAGG,464
CTAAACGACTATATGCACGTTGCAGTATTGTTCTTC,713
GAAATTTCTCATCATCACCTACATATTCTCCTATAG,586
GAATGGTTACGTTGCCACTCACGTAAGAAGTTCTAG,501
TGTACGAAGCTATGTGATCAGTATATAGTAGTTAGG,594
CTAAGAAGTGCTTGCCATGTGCTTTGAAAACTTTTC,807
GAATATCCCTATCAAATCGTGATAATATGTGGTTAG,529
CCTAACTACTATAGGAGCACGTGATAGCTTCGTACA,14900
CTAATGACTACGCATTATCACGTAGGCATATATTTC,586
CTAAGTCGGGAACCTGATGCATCATTCTTTATCTTC,532
CTAATATTATATTATCACATGCGGTGTGAGAAGTTC,1480
CTACGCTGTTACCTCCAGGTGATTGCTGTCTTTTTC,545
CTATTCCTCAGTCTGTACGTGTTGTTGTGGCTGTTC,547
GAAAGTATATATTGTCACGATTGTGGTTCATTATAG,663
CTATTTTTTTTTTTTCACATGTTTCAATTTGCGTTC,923
CTAAGAAACTAAAATCTGATGATGAAATTGATATTC,538
GAAAATAGACATATTCACGTGTATGCAAGGGCATAG,2820

# Set 4 — method: RNA Bind-n-Seq; form: RNA; sample: in vitro; concentration: 365 nM; baseline: no-protein control; reading: higher = stronger binding
# Target: RNA binding protein fox-1 homolog 2, RRM domain, GST-SBP tag (RBFOX2, Homo sapiens, UniProt O43251-10, residues 100-194)
# Setting: natural RNA segment, single round, ends assumed
# Constant ends, left off below: GGGAGUUCUACAGUCCGACGAUC … UGGAAUUCUCGGGUGCCAA
# Target sequence (chain): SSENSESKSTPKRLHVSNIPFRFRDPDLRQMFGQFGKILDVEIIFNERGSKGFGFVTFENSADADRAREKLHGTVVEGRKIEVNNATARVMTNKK
Oligonucleotide,RBNS enrichment (R)
CAUAAACUCCUCCCUUUGGGAGGCUGGCAAAAAAGGGGCUGUGCUCUCCCUGGUUAAGCAGUUUGUACUACAGAACCCCCGAGCUGCUGUGGGUCCUACAGGUGCUUCCA,0.395
UAGUGGCACAUGCCUGUAAUCCCAGCUACCCGGGGAGGCUGAGGCAGGAGAAUUGCUUGAACUCAGAAGGCGGAGGCUGCAGUGAGCCGAGAUCGUGCCACUGCACUCCA,0.613
GCUCCUUGGAUGGUGAAUAGCUGCCCUUCUUGCUUCACCAUUCCAAGCCCAUUCCGGGAUGGGUGGCGAGCACAGGGUGCAUAAGCAAGCUGUUCUUCCCAGUCGGUAGG,0.539
UUCGUUUUUGCAUGAAUCGCGAUAUUUUGUACUUUUAAAAACUCCAACUUCCACAAAACAACUCAAGGCCUCCAAGUAUCAAGAUGUCCUGAAAUUUUUUUUUUUUUAGC,71.3
CCUGGCUGGCUGAGGUGGUGUGAUAGAGGUCUGUGGUAAACAGCAGAACUUAGGGUGCAGACUGACUUAUUGAUUUCCACCUUGGCAAUGGCAAUAAAGCAUUUUGUAAG,1.7
AACGACAGAAGAACAUGGCAUUUUUAUAAAUUAUUUUUUUGAAAUAAAUCUCUGUGUGCCUGGUGGCUUCCCUGUGUGGCAGGGUGUAGGGUGGGAAGAUUUUCCACGUU,0.828
GCUAAGAUAUUUUCCAAUCAGUCCCCUUUGUAUUAGUGGGGCAUUUGUGGUUAGUUUGAAAAACAGACAUGGAUAAACUAAAAUGCUUCAUACUUUAUAAGUAAAGCGCU,0.454
GUCAGAACCUUGCAAUAAGCCAAGGUAUUACCAGUAAAUUGGUUGUAUAUACAAUAAAAUUGCACCCUUUUUUAAACAAAACAAACUAAGCAAUAGUUUGGGCAGUUUUA,0.346
CAAUGGGUUUUUCCCUGUACAGUAGAUUUUCCAAAUGUAAUAAACUUUAAUAUAAAGUAGUCCUGUGAAUGCCACUGCCUUCGCUUCUUGCCUCUGUGCUGUGUGUGACG,0.387
GUACAGAUUGUGGGAAGAAGCAGAAACACAAUUCAGAACACCGUCUUCUCCACCCACAGUCCAACUCCACCCCAGACUUCCGUGUGUCAGAGCUAAGGGGAACACCGAGA,0.458
UUCCUGCCACUUGGUCUGACCCUGGGCCUCUUGUCUUUGGCUUGAACAUUAAGCUAUUUAACCCUCAAAGUUGACCAUGCUUCCAGGACCACAGCACACCCAAGGACAUG,0.484
UGUUUCCUUAAUUAUCAUGGCAAGAUUACCUCACGUUCAGUAUAGUUUAGUUUUGUGUGUAUCUUACAGUAUGCAUGUUCUGAAAUUAUUUGUGAUCCUGAUAUGUCACA,0.98

# Some of these lines once more (set 4):
Oligonucleotide,RBNS enrichment (R)
GUACAGAUUGUGGGAAGAAGCAGAAACACAAUUCAGAACACCGUCUUCUCCACCCACAGUCCAACUCCACCCCAGACUUCCGUGUGUCAGAGCUAAGGGGAACACCGAGA,0.458
CAAUGGGUUUUUCCCUGUACAGUAGAUUUUCCAAAUGUAAUAAACUUUAAUAUAAAGUAGUCCUGUGAAUGCCACUGCCUUCGCUUCUUGCCUCUGUGCUGUGUGUGACG,0.387
CCUGGCUGGCUGAGGUGGUGUGAUAGAGGUCUGUGGUAAACAGCAGAACUUAGGGUGCAGACUGACUUAUUGAUUUCCACCUUGGCAAUGGCAAUAAAGCAUUUUGUAAG,1.7
UUCGUUUUUGCAUGAAUCGCGAUAUUUUGUACUUUUAAAAACUCCAACUUCCACAAAACAACUCAAGGCCUCCAAGUAUCAAGAUGUCCUGAAAUUUUUUUUUUUUUAGC,71.3
CAUAAACUCCUCCCUUUGGGAGGCUGGCAAAAAAGGGGCUGUGCUCUCCCUGGUUAAGCAGUUUGUACUACAGAACCCCCGAGCUGCUGUGGGUCCUACAGGUGCUUCCA,0.395
GCUAAGAUAUUUUCCAAUCAGUCCCCUUUGUAUUAGUGGGGCAUUUGUGGUUAGUUUGAAAAACAGACAUGGAUAAACUAAAAUGCUUCAUACUUUAUAAGUAAAGCGCU,0.454
UUCCUGCCACUUGGUCUGACCCUGGGCCUCUUGUCUUUGGCUUGAACAUUAAGCUAUUUAACCCUCAAAGUUGACCAUGCUUCCAGGACCACAGCACACCCAAGGACAUG,0.484
AACGACAGAAGAACAUGGCAUUUUUAUAAAUUAUUUUUUUGAAAUAAAUCUCUGUGUGCCUGGUGGCUUCCCUGUGUGGCAGGGUGUAGGGUGGGAAGAUUUUCCACGUU,0.828
UAGUGGCACAUGCCUGUAAUCCCAGCUACCCGGGGAGGCUGAGGCAGGAGAAUUGCUUGAACUCAGAAGGCGGAGGCUGCAGUGAGCCGAGAUCGUGCCACUGCACUCCA,0.613
